Experimental data from different studies.
Parts stem from different laboratories: compare values within a part only.

Sample 1
Target: Ras GTPase-activating protein-binding protein 1, full length (G3BP1, Homo sapiens, UniProt Q13283)
UniProt Q13283, sequence (whole entry, looked up): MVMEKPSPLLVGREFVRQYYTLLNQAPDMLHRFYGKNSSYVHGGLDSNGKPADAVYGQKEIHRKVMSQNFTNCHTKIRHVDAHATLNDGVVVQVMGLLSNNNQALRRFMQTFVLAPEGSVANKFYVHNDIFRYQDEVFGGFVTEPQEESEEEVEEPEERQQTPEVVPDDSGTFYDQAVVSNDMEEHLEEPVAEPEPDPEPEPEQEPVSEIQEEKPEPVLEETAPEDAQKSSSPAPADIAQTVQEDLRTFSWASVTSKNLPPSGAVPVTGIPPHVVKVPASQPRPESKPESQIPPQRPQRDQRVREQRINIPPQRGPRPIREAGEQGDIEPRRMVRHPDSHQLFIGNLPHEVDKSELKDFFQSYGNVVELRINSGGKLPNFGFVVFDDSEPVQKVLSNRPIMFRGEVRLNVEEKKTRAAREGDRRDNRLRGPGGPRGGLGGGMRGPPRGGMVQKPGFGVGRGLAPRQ
Method: RNA Bind-n-Seq
Form: RNA
Matrix: in vitro
Tested at: 200 nM
Setting: whole 134-nt RNA, ends assumed
With: 150 mM KCl
Reference: input library
Reading: higher = stronger binding
All sequences stand within: GGGAGUUCUACAGUCCGACGAUC … UGGAAUUCUCGGGUGUCAAGG
Oligonucleotide	log2 enrichment
CUGUGCUACACAUCGUAUGUACCGAAUCGGGCCCCCCCGGGCCCCCCCGGGCCCCCCCGGGGAAAGUAUUAUGUUACGCCGUUCGGAUCU	-1.48
UGGAAGGUGGAUUUUGUUUAUUUUUUUAGCUCAUUUCCAGGGGUGGGAAUUUUUUUUUAAUAUGUGUCAUGAAUAAAGUUGUUUUUGAAA	-0.248
UGGCCCUGGUGGCAUGCGGGGAGGAAGAGGUGGCCUCAUGGAUCGUGGUGGUCCCGGUGGAAUUUUCAGAGGUGGCCGUGGUGGAGACAG	0.312
AGUCCUGUGCUACACAUCGUAUGUACCGAAUCGGGGAAAAAGGGGUGGGGUUUGGGGAAAGUAUUAUGUUACGCCGUUCGGAUCUGCACU	0.175
CUCAAGUCCUGUGCUACACAUCGUAUGUACCGAAUCGGGGUUGGGUUGGGUUGGAAAGUAUUAUGUUACGCCGUUCGGAUCUGCACUUCC	0.433
CCUCAAGUCCUGUGCUACACAUCGUAUGUACCGAAUCGGAGGGAGGGAGGGGAAAGUAUUAUGUUACGCCGUUCGGAUCUGCACUUCCAG	1.12
GUCCUGUGCUACACAUCGUAUGUACCGAAUCGGGCCCCCGGGCCCCCGGGGCCCCCGGAAAGUAUUAUGUUACGCCGUUCGGAUCUGCAC	-0.953

Sample 2
Target: Sal-like protein 4, full length isoform A (SALL4, Homo sapiens, UniProt Q9UJQ4, residues 1-1053)
UniProt Q9UJQ4, sequence (whole entry, looked up): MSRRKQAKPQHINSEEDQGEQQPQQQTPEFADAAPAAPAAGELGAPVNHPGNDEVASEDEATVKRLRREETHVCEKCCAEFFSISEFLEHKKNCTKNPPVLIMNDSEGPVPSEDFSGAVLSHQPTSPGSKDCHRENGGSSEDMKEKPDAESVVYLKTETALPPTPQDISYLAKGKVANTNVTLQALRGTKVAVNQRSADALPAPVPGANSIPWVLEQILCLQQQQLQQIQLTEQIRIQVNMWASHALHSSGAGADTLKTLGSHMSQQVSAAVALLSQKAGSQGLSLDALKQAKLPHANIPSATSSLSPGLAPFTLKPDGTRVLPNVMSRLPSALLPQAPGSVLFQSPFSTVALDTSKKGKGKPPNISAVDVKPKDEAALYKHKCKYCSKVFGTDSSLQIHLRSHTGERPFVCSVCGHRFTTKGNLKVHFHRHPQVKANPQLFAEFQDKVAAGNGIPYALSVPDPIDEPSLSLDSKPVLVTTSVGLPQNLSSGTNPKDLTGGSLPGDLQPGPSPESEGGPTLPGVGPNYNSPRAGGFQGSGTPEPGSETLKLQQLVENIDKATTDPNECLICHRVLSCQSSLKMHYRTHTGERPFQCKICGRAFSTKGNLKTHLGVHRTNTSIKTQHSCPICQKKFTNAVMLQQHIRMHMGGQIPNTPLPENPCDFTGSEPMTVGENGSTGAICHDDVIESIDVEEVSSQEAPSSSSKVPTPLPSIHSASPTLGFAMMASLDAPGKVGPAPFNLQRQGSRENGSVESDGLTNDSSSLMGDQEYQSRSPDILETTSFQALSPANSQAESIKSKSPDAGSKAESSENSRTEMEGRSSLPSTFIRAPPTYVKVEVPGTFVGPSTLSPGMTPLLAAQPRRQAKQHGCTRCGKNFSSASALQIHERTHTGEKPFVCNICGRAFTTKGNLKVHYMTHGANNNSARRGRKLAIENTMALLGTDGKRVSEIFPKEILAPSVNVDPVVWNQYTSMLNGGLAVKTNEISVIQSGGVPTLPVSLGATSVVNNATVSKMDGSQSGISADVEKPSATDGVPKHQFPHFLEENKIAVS
Method: universal PBM
Form: double-stranded DNA, one strand shown
Matrix: in vitro
Tested at: 600 nM
Setting: 8-mer, flanks averaged, mean of replicates
Reading: higher = stronger binding
Oligonucleotide	E-score
GCCGAACA	-0.0914
GTCCTAAC	0.102
CAGTGATA	0.13
CAATTCGA	0.0434
GAGTTACA	0.113
CCAGTACG	-0.0779
CGGTTCAA	-0.188
AGGCTTCC	-0.134
CCGCAAGC	-0.241
CAACCTAG	-0.074

Sample 3
Target: Interferon regulatory factor 5, full length, phosphomimetic (IRF5, Homo sapiens, UniProt Q13568-2, residues 1-514, S451D/S453D/S456D/S462D)
Method: protein-binding microarray
Form: double-stranded DNA, one strand shown
Matrix: in vitro
Tested at: 940 nM top
Setting: 60-bp whole probe
With: salmon DNA 0.4 mg/ml
Reference: random background probes
Reading: higher = stronger binding
All sequences stand within: GCCTAGCAC … GTCTTGATTCGCTTGACGCTGCTG
Oligonucleotide	fitted relative affinity [z-score]
AAGGAAATCGGTGATCAGTCTGTGCTA	-0.416
TTAGGTATAGACTTTCGGTTAGTGCTA	2.1
GACGGCCTCCTTCTCCTGACGTGCTAG	0.105
TTAGGTCTCCTTCTCCTTTTGTGCTAG	0.827
TCACCTTTTTTTTTTTTACTGTGCTAG	1.79
TTAGAAATGGGGTATCGATTAGTGCTA	2.77
GACGATTCCAGTTTCTAGACGTGCTAG	1.32

Mixed results
Substance	target	test	system	setting	scale	quantity	result
PhoQ, residues 284 288 289 292 302 303 AGHLVA	PhoP, residues 12 14 15 18 19 GHCSL (Escherichia coli, UniProt P23836)	Sort-seq, measured: YFP reporter	E. coli	PhoQ-PhoP variant library, with: 10 µM Mg2+	reference: high Mg2+ state, higher = stronger signaling	fold induction	13.3

Repeated from above (sample 2):
Oligonucleotide	E-score
GTCCTAAC	0.102
GAGTTACA	0.113
GCCGAACA	-0.0914
